Results collected from several papers.
Each line is one published result; not all experiments were run side by side.
EGFR T790M: Epidermal growth factor receptor (EGFR, Homo sapiens, UniProt P00533, T790M)
EGFR G719C: Epidermal growth factor receptor (EGFR, Homo sapiens, UniProt P00533, G719C)
EGFR: Epidermal growth factor receptor (EGFR, Homo sapiens, UniProt P00533)
EGFR G719S: Epidermal growth factor receptor (EGFR, Homo sapiens, UniProt P00533, G719S)
EGFR L858R: Epidermal growth factor receptor (EGFR, Homo sapiens, UniProt P00533, L858R)

SMILES | target | assay | system | conditions | scale | endpoint | result
CCCOc1ccc(OC)c(F)c1C(=O)c1ccc(C(=O)N[C@@H]2CNC[C@H]2NC(=O)c2ccc3[nH]ncc3c2)cc1 | EGFR T790M | enzyme activity |  | 10 µM |  | remaining activity | 106%
O=C(NC1CCC1)c1ccc2nc(-c3cccc(NS(=O)(=O)NCCN4CCCCC4)c3)cn2c1 | EGFR G719C | enzyme activity |  | 10 µM |  | remaining activity | 100%
[2H]c1cc(C)c(NC(=O)c2cnc(Nc3cc(N4CCC(O)CC4)nc(C)n3)s2)c(Cl)c1 | EGFR |  |  | 0.001 µM |  | inhibition | < 50%
COc1cc(N2CCN(C)CC2)ccc1Nc1nc(N)n(C(=S)NCc2c(Cl)cccc2Cl)n1 | EGFR G719S | enzyme activity |  | 10 µM | reference: control | remaining activity | 4.2%
[2H]c1cc(C)c(NC(=O)c2cnc(Nc3cc(N4CCCCC4)nc(C)n3)s2)c(Cl)c1 | EGFR T790M |  |  | 0.01 µM |  | inhibition | < 30%
C=CC(=O)N1CCC(C(=O)NCC(=O)N2CCN(c3nc(-c4cnc(N)nc4C(F)F)nc(N4CCOCC4)n3)CC2)CC1 | EGFR L858R | KINOMEscan |  | 1 µM |  | remaining binding | 100%
CC(C)Oc1cc(N2CCN(C)CC2)ccc1Nc1nc(N)n(C(=O)NCc2ccccc2S(=O)(=O)C(C)C)n1 | EGFR G719S | enzyme activity |  | 10 µM | reference: control | remaining activity | 5.4%
COc1ccc(-c2nn(-c3ccc(S(C)(=O)=O)cc3)cc2C=N/N=c2\[nH]c(-c3ccc([N+](=O)[O-])cc3)cs2)cc1 | EGFR L858R | kinase activity, inhibitor |  | 0.1 µM |  | inhibition | 61.5%
CC(C)C[C@H](NC(=O)[C@H](CO)NC(=O)[C@H](CO)NC(=O)CNC(=O)[C@@H]1CCCN1C(=O)[C@H](Cc1ccc(O)cc1)NC(=O)[C@H](CC(C)C)NC(=O)[C@H](CO)NC(=O)[C@H](CS)NC(=O)[C@H](CC(C)C)NC(=O)[C@@H](N)CC(C)C)C(=O)O | Epidermal growth factor receptor, extracellular domain (EGFR, Homo sapiens, UniProt P00533) | binding, first site, surface plasmon resonance | immobilised soluble EGFR | model, binding, one to two |  | koff | 0.06 s⁻¹
C[C@@H](c1ccc(-n2cnc3c(N)ncnc32)cc1)N1CCc2nn(C)c(Cc3ccccc3)c2C1=O | EGFR | KINOMEscan |  | 0.1 µM | reference: DMSO control | remaining binding | 79%
COc1cc2ncnc(Nc3ccc(F)c(Cl)c3)c2cc1OCCCN1CCN(C(=O)CCOCCOCCOCCOCCOCCNc2ccc3c(c2)C(=O)N(C2CCC(=O)NC2=O)C3=O)CC1 (stereo not drawn) | EGFR (Homo sapiens, UniProt P00533, del746-750) | protein degradation, degrader, western blot | HCC827 | 100 nM |  | time to significant reduction | ≤ 4 h
CC(C)Cc1ccc(-c2nn(-c3ccc(S(C)(=O)=O)cc3)cc2/C=N/N=c2\[nH]c(-c3ccc([N+](=O)[O-])cc3)cs2)cc1 | EGFR L858R | kinase activity, inhibitor |  | 0.01 µM |  | inhibition | 28%
CCOc1cc(N2CCN(C)CC2)ccc1Nc1nc(N)n(C(=O)NCc2ccccc2S(=O)(=O)C(C)C)n1 | EGFR (Homo sapiens, UniProt P00533, A750P/del747-749) | enzyme activity |  | 10 µM | reference: control | remaining activity | 19%
C=CC(=O)N1CCC(COCC(=O)N2CCN(c3nc(-c4cnc(N)nc4C(F)F)nc(N4CCOC[C@@H]4C)n3)CC2)CC1 | EGFR (Homo sapiens, UniProt P00533, L858R/T790M) | KINOMEscan |  | 1 µM | reference: DMSO control | remaining binding | 98%
COc1cc(N2CCN(C)CC2)ccc1Nc1nc(N)n(C(=O)NCc2c(Cl)cccc2Cl)n1 | EGFR (Homo sapiens, UniProt P00533, L861Q) | enzyme activity |  | 10 µM | reference: control | remaining activity | 9.6%
COc1ccc(-c2nn(-c3ccc(S(C)(=O)=O)cc3)cc2/C=N/N=c2\[nH]c(-c3ccc(Br)cc3)cs2)cc1 | EGFR | kinase activity, inhibitor |  | 0.01 µM |  | inhibition | 37.5%
COc1cc(N2CCN(C)CC2)ccc1Nc1nc(N)n(C(=O)NCc2ccccc2S(=O)(=O)C(C)C)n1 | EGFR G719C | enzyme activity |  | 10 µM | reference: control | remaining activity | 1%
CC(C)C[C@H](NC(=O)[C@H](CO)NC(=O)[C@H](CO)NC(=O)CNC(=O)[C@@H]1CCCN1C(=O)[C@H](Cc1ccc(O)cc1)NC(=O)[C@H](CC(C)C)NC(=O)[C@H](CO)NC(=O)[C@H](CS)NC(=O)[C@H](CC(C)C)NC(=O)[C@H](CC(C)C)NC(=O)CCCCCNC(=S)Nc1ccc2c(c1)C(=O)OC21c2ccc(O)cc2Oc2cc(O)ccc21)C(=O)O | EGFR | binding, first site, LigandTracer cell binding | A-431 | FITC-labelled, model, binding, one to two |  | koff | 1.89e-05 s⁻¹

Repeated from above:
SMILES | target | assay | system | conditions | scale | endpoint | result
COc1cc(N2CCN(C)CC2)ccc1Nc1nc(N)n(C(=O)NCc2c(Cl)cccc2Cl)n1 | EGFR (Homo sapiens, UniProt P00533, L861Q) | enzyme activity |  | 10 µM | reference: control | remaining activity | 9.6%
